Experimental data gathered from unrelated publications.
Every numbered part comes from another study and shows a few of its results, in no order.

Study 1 — method: protein-binding microarray; molecule type: double-stranded DNA, one strand shown; matrix: in vitro; tested at: 250 nM; notes: 60-bp whole probe; together with: salmon DNA 0.4 mg/ml; reference: random background probes; reading: higher = stronger binding; endpoint: log fluorescence; shared flanks, not repeated: GCCTAGCACT … GTCTTGATTCGCTTGACGCTGCTG
Target: Interferon regulatory factor 7, full length, phosphomimetic (IRF7, Homo sapiens, UniProt Q92985, residues 1-503, S101K/S471D/S472D/S475D/S476D/S477D/S483D/S484D/S487D)
Residues (chain): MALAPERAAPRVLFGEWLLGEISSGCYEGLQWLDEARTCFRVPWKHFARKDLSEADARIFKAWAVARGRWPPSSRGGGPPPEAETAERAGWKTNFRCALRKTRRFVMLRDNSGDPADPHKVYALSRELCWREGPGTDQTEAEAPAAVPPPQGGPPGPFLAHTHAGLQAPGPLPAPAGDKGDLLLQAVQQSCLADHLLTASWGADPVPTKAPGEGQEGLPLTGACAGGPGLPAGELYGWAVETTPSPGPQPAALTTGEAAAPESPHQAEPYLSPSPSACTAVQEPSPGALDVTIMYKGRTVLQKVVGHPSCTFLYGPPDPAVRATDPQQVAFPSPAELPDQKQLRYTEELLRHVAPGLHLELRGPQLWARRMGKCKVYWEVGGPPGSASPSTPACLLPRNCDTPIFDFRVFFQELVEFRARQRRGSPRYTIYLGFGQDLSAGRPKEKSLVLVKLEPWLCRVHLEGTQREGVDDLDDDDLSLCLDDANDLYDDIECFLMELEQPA
Sequence = GAGGACTGCTTTTCCTTTAGTGCTAG; value = 0.506 z-score
Sequence = CAGTTTTCCTTATTGCACTGTGCTAG; value = 2.13 z-score
Sequence = CATATTTGTCCCTATTACTGTGCTAG; value = 1.39 z-score
Sequence = TAGGTTTCGTGACTGGGTTAGTGCTA; value = 2.19 z-score
Sequence = TAGGTATCGGTTTCGGCTAGTGCTAG; value = 6.77 z-score
Sequence = CATGTCTGGGATTTTGACTGTGCTAG; value = -0.186 z-score
Sequence = TACGTTTCGACTATCGGTTAGTGCTA; value = 2.64 z-score

Study 2 — method: RNA Bind-n-Seq; molecule type: RNA; matrix: in vitro; tested at: 20 nM; notes: 6-mer, flanks averaged, single round; together with: 150 mM KCl; reference: input library; reading: higher = stronger binding; endpoint: 6-mer enrichment (R)
Target: TAR DNA-binding protein 43, full length, His tag (TARDBP, Homo sapiens, UniProt Q13148, residues 1-414)
Sequence = UGCAAG; value = 0.991
Sequence = AGCGCG; value = 1.58
Sequence = UUCCGC; value = 0.593
Sequence = AAGCCA; value = 0.668
Sequence = AAUCAU; value = 0.588
Sequence = UUCCCG; value = 0.597
Sequence = GUCUAC; value = 0.621
Sequence = GUCGCG; value = 1.53
Sequence = GUUGUG; value = 1.43

Study 3 — method: universal PBM; molecule type: double-stranded DNA, one strand shown; matrix: in vitro; tested at: not given; reading: higher = stronger binding; endpoint: E-score
Target: Sal-like protein 4, full length isoform B (SALL4, Homo sapiens, UniProt Q9UJQ4-2, residues 1-616)
Notes: 8-mer, flanks averaged, mean of replicates
Sequence = GCAAAACA; value = 0.0678
Sequence = GAGCACGC; value = -0.18
Sequence = AGTCCAAC; value = -0.213
Sequence = ATGCGCTG; value = -0.18
Sequence = AATCTTGT; value = 0.137
Sequence = CTTTCCAC; value = 0.0245
Sequence = ACAGCGGT; value = -0.138
Sequence = AGGGGGGC; value = -0.39
Sequence = ATCAATCG; value = 0.115
Sequence = CATTTACC; value = 0.171

Mixed results
Molecule = PhoQ, residues 284 288 289 292 302 303 SVHLDV; target = PhoP, residues 12 14 15 18 19 LHHSG (Escherichia coli, UniProt P23836); assay = Sort-seq, measured: YFP reporter; test system = E. coli; setting = PhoQ-PhoP variant library, together with: 10 µM Mg2+; scale = reference: high Mg2+ state, higher = stronger signaling; endpoint = fold induction; value = 7.03

Repeated from above (study 3):
Sequence = GCAAAACA; value = 0.0678
Sequence = GAGCACGC; value = -0.18
Sequence = AGTCCAAC; value = -0.213
Sequence = ATGCGCTG; value = -0.18
Sequence = AATCTTGT; value = 0.137
